Assay results of several laboratories.
Each numbered part is a random draw from the data of one study; scales do not carry over between parts. Changes are numbered by the printed parent chain.

Sample 1 — technique: RNA Bind-n-Seq; molecule type: RNA; sample: in vitro; tested at: 200 nM; setting: whole 134-nt RNA, ends assumed; with: 150 mM LiCl; baseline: input library; direction: higher = stronger binding; library: 7-deaza-guanosine replaces G
Target: Ras GTPase-activating protein-binding protein 1, full length (G3BP1, Homo sapiens, UniProt Q13283)
Chain of UniProt Q13283 (whole entry, looked up): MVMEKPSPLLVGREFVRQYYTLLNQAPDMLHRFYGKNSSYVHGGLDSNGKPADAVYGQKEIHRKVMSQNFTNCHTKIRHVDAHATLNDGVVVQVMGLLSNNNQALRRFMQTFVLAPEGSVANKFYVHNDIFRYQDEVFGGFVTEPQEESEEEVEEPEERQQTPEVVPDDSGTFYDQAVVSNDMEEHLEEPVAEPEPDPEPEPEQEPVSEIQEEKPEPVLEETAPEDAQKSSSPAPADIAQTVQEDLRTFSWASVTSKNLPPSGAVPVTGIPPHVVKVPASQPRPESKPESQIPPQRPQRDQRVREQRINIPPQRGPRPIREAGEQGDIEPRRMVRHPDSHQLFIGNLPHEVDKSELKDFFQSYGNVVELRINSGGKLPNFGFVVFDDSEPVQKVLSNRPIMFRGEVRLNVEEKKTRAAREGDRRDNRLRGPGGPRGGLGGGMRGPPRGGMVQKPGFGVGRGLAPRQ
| Sequence | log2 enrichment |
| --- | --- |
| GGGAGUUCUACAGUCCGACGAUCGCAGGAAGUAAAAACAAAUGGAAAUGCUUCGGAUAGUGGCAGGGGUGGGGCUUGCUAAGGAAAGGGUGGGAUGGGAGUGGGUAAAGAGUUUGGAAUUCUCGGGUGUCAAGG | -0.267 |
| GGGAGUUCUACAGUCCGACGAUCGUCCUGUGCUACACAUCGUAUGUACCGAAUCGGGAAAAAGGGAAAAAGGGGAAAAAGGAAAGUAUUAUGUUACGCCGUUCGGAUCUGCACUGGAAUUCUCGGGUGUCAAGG | -0.118 |
| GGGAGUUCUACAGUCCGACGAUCUGGGAGGUGGAUUUUGUUUAUUUUUUUAGCUCAUUUCCACGGGUGGGAAUUUUUUUUUAAUAUGUGUCAUGAAUAAAGUUGUUUUUGAAAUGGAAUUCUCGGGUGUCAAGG | 0.198 |
| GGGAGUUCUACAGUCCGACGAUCAACUAAUACUCUUAAAUGGUCUUUCAGUAUAGUGGUUCUUACGUAGUUUAACAUAGCUAUAAAUUGAGUUUAACAAUUUAUAAACUCAAGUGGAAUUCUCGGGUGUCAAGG | 0.708 |
| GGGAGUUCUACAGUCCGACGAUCUCCUGUGCUACACAUCGUAUGUACCGAAUCGGGGUUUUUGGGGUUUGGGGUUUUUGGGGAAAGUAUUAUGUUACGCCGUUCGGAUCUGCAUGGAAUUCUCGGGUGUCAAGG | -0.221 |
| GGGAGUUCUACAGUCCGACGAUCAGUCCUGUGCUACACAUCGUAUGUACCGAAUCGGCCCCCGGGGCCCCCGGCCCCCGGGAAAGUAUUAUGUUACGCCGUUCGGAUCUGCACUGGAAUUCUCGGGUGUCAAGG | -1.18 |
| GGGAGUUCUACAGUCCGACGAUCUGCCAUGGACAAUAUUACCAGGCAGAACCAAUUCUACGAUACCCAAGUCAUCAAACAAGAAAACGAGUCAGGCUACGAGAGGAGACCACUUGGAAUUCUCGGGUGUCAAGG | 0.792 |
| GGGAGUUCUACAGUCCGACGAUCAAGUCCUGUGCUACACAUCGUAUGUACCGAAUCGGGGUUUUGGUUUUGGUUUUGGGAAAGUAUUAUGUUACGCCGUUCGGAUCUGCACUUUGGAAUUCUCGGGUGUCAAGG | -1.21 |
| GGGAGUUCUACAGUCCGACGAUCACCACUGCUACAGUCACCACCACCCAGGCCUCCUAUGCAGCUCAGUCUGCAUAUGGCACUCAGCCUGCUUAUCCAGCCUAUGGGCAGCAGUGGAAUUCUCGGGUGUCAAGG | 1.2 |
| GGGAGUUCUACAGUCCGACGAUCGCAGGAAGUAAAAACAAAUGGAAAUGCUUCGGAUAGUGGCAGGGGUGGGGGUUGCUAAGGAAAGGGUGGGAUGGGAGUGGGUAAAGGGUUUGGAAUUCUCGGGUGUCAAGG | 0.00543 |
| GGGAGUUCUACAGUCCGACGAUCUAACUUUAGAGGAGGAUCUGAUGGACAUGGCAGUGGACGUGGAUUUGGGGAUGGCUAUAAUGGGUAUGGAGGAGGACCUGGAGGUGGCAAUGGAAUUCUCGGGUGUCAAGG | -0.233 |

Sample 2 — technique: DHFR PCA, deep sequencing; sample: yeast; with: (+)-ABA 2500 µM; baseline: wild-type fitted maximum; direction: higher = stronger binding
Target: ABI1, truncated, D143A, DHFR fusion (Arabidopsis thaliana)
Setting: methotrexate growth selection, single substitutions
Parent: PYL1, truncated, DHFR fusion (Arabidopsis thaliana); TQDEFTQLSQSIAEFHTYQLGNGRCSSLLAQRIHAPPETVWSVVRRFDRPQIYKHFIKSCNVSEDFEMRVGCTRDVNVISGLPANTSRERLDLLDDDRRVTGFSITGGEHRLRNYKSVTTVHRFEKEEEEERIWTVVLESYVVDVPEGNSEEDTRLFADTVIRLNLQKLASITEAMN
| Change | relative binding score [%] |
| --- | --- |
| W41M | -1.25 |
| K54H | 43 |
| Q7W | 105 |
| S63L | 95.2 |
| P146M | 67 |
| E125L | 105 |
| S63Q | 93.5 |
| V100H | 87.4 |
| L138S | 52 |
| I105C | 98 |
| D48S | 90.2 |
| W41R | 2.83 |

Sample 3 — technique: RNAcompete; molecule type: RNA; sample: in vitro; tested at: 20 nM; setting: 7-mer, probes averaged, single round; baseline: mean of 7-mers; direction: higher = stronger binding
Target: PABPC1L2, full length, GST fusion (mouse, UniProt A0ABA7IW68)
Residues (chain): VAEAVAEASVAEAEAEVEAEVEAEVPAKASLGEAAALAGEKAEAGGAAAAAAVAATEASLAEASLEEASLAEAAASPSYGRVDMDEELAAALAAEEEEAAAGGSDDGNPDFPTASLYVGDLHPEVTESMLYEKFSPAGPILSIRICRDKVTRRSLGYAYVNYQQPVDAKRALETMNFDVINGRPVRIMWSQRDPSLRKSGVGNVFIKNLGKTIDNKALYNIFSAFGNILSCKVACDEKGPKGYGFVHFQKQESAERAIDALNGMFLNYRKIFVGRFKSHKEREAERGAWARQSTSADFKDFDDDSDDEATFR
| Sequence | 7-mer Z-score |
| --- | --- |
| GAGGCAU | -0.0863 |
| GGAGAGC | 0.157 |
| AACUCGG | -0.0337 |
| UCAGGUU | -0.278 |
| AAUGUUU | -0.188 |
| GGUUUUU | -0.271 |
| GGAACGC | -0.0627 |
| UCGCUGC | -0.329 |
| CCCAGGU | -0.291 |
| CGUCGCG | -0.452 |
| UCCAGGU | -0.324 |
| UAACAUC | -0.121 |

Sample 4 — target: CCNA1, cyclin fold, Cln2 fusion (human); technique: yeast growth competition, sequencing; sample: yeast; setting: weak parent motif; baseline: not given; direction: higher = stronger binding
Parent: MICAL3 docking peptide (human); LQLRRQLSFSEDS
| Change | normalised enrichment score |
| --- | --- |
| LQLRRQNSFSEDS [L7N] | -0.103 |
| LQLRRQLSFSADS [E11A] | 0.22 |
| LQLRRQLSFSCDS [E11C] | 0.444 |
| LQLRRQLSCSEDS [F9C] | -0.0676 |
| LQLRRQPSFSEDS [L7P] | 0.109 |
| LQLRRQLSFMEDS [S10M] | 0.259 |
| LQLRRQLSKSEDS [F9K] | 0.31 |
| LQLRRSLSFSEDS [Q6S] | 0.223 |
| LQLRRQLSFPEDS [S10P] | 0.813 |
| LQLRRQLSFAEDS [S10A] | 0.35 |
| LQLRRMLSFSEDS [Q6M] | 0.307 |
| LQLRRQLSHSEDS [F9H] | -0.0694 |
| LQLRRQLSWSEDS [F9W] | 0.115 |
| LQLRRQLSFSPDS [E11P] | 0.464 |
| LQLRRQLSFSETS [D12T] | 0.277 |
| LQLRRQLSASEDS [F9A] | 0.207 |

Sample 5 — technique: protein-binding microarray; molecule type: double-stranded DNA, one strand shown; sample: in vitro; tested at: 0.8 µM; setting: whole 60-bp probe, no competitor; direction: higher = stronger binding
Target: Centromere-binding protein 1, full length, N-terminal tag (CBF1, Saccharomyces cerevisiae, UniProt P17106, residues 1-351)
Chain of UniProt P17106 (whole entry, looked up): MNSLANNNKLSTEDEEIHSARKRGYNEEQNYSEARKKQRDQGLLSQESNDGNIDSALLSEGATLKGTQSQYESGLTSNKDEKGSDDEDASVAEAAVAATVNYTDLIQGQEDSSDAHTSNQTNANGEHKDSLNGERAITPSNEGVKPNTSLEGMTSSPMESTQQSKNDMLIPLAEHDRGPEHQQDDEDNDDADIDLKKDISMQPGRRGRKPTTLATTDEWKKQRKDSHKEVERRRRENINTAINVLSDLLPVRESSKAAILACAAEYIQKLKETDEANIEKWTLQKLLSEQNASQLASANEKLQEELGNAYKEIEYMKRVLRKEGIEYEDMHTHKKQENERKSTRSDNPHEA
| Sequence | fluorescence intensity [a.u.] |
| --- | --- |
| TGTACGAAGCTATAACTTAATCATATAGTAGTTAGGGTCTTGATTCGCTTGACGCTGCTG | 501 |
| GAAATGTACAATTGTTTCGTGATAATGTCTCTTTAGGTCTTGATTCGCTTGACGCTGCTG | 515 |
| GAACCCGGGACGCGTCATGCGCGTTCCAGAAAGTAGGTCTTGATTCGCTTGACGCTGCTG | 539 |
| GAAATGATGAATGTGCACATGCTGTCGAAACCATAGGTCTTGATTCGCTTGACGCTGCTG | 883 |
| TGTACGAAGCTATCTCTCGTCAGTATAGTAGTTAGGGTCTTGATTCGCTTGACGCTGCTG | 531 |
| CTAGTGCGTTATGCTTCCATGTGACCCAACATCTTCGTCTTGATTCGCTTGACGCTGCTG | 3470 |
| GAAGTCATTGATAACAGCGTGACTCTTCCCGGATAGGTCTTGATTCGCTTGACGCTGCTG | 957 |
| GAAAAACAGTTGGGTCACATATAACTGAATACATAGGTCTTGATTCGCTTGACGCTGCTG | 538 |
| CTATACCAATTCAGACTCACGAGAAAAAAAACTTTCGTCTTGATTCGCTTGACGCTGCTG | 635 |

Some of these lines once more (sample 3):
| Sequence | 7-mer Z-score |
| --- | --- |
| UCAGGUU | -0.278 |
| GGAGAGC | 0.157 |
| AAUGUUU | -0.188 |
| CCCAGGU | -0.291 |
